Assay results gathered from unrelated publications.
Each line is one published result; not all experiments were run side by side.
Route: oral

Compound	species	sample	dose	notes	bioavailability [%]
COc1cc2ncnc(Oc3ccc(Nc4nccc5[nH]cc(-c6ccc(F)cc6)c(=O)c45)cc3F)c2cc1OC	male beagle dog	plasma	–	–	72.6
N#Cc1ccnc(N2C(=O)CC[C@H]2C(=O)N(c2cc(F)cc(F)c2)[C@H](C(=O)NC2CC(F)(F)C2)c2ccccc2Cl)c1 (stereo in doubt)	beagle dog	plasma	10 mg/kg	–	18
CCC1(CC)CC(=O)N(C2c3cc(C(=O)NC4c5ccccc5CC4O)ccc3OC2(C)COC)C(=N)N1 (centres unmarked)	male beagle dog	plasma	–	–	66
N#Cc1ccnc(N2C(=O)CC[C@H]2C(=O)N(c2cncc(F)c2)[C@H](C(=O)NC2CC(F)(F)C2)c2ccccc2Cl)c1	beagle dog	plasma	10 mg/kg	–	21
OCC1OC(n2cnc3c(NCc4ccc(Br)s4)ncnc32)C(O)C1O (centres unmarked)	beagle dog	blood	–	–	59 to 79
Cn1cncc1[C@@]1(N)c2ccc(C#N)c(c2)COc2cccc(c2)-c2cc(C#N)nc3ccc1cc23	beagle dog	plasma	10 mg/kg	single dose	86
CCC1(CC)CC(=O)N(C2CCOc3ccc(C(=O)NC4CC(C)(C)Oc5ccccc54)cc32)C(=N)N1 (centres unmarked)	male beagle dog	plasma	–	–	42.4
C/C(N)=N/C(=N\S(=O)(=O)c1ccc(C(F)(F)F)cc1)N1C[C@H](c2ccccc2)C(c2ccc(Cl)cc2)=N1	beagle dog	plasma	36 mg/kg	–	21

For quick reference, copied from above:
Compound	species	sample	dose	notes	bioavailability [%]
N#Cc1ccnc(N2C(=O)CC[C@H]2C(=O)N(c2cncc(F)c2)[C@H](C(=O)NC2CC(F)(F)C2)c2ccccc2Cl)c1	beagle dog	plasma	10 mg/kg	–	21
